Published values of several laboratories.
Protocols differ between the studies behind these lines. ± gives the spread as reported.
SIRT6: NAD-dependent protein deacylase sirtuin-6 (SIRT6, Homo sapiens, UniProt Q8N6T7)

Protein sequences, listed by entry. Tags and fused reporters are not part of them. Lines headed by an entry give the natural chain unless they say otherwise; changes in a name come on top. Residues count along the entry.
UniProt Q8N6T7, whole entry: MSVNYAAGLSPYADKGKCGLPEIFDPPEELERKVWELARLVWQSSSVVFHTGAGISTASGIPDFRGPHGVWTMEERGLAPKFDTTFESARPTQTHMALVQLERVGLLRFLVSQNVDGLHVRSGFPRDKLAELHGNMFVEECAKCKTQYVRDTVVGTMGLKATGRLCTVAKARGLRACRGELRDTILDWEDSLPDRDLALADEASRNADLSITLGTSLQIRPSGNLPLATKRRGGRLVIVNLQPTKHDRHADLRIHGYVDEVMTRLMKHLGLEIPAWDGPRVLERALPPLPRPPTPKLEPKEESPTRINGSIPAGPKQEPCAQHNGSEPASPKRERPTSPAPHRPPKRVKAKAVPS
UniProt Q9WMX2, 1192-1657 limits assumed: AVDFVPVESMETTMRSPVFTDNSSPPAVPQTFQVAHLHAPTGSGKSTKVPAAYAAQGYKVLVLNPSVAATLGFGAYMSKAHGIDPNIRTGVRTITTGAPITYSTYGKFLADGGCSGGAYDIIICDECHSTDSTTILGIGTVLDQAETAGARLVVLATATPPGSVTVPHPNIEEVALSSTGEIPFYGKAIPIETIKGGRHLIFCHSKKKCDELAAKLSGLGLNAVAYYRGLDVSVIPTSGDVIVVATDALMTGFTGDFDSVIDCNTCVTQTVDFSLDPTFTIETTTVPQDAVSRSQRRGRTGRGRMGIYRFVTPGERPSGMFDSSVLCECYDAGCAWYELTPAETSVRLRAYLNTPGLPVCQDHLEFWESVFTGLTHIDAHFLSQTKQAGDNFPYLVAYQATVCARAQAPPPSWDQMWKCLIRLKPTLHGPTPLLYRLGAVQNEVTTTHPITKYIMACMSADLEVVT
UniProt Q8T6T2, whole entry: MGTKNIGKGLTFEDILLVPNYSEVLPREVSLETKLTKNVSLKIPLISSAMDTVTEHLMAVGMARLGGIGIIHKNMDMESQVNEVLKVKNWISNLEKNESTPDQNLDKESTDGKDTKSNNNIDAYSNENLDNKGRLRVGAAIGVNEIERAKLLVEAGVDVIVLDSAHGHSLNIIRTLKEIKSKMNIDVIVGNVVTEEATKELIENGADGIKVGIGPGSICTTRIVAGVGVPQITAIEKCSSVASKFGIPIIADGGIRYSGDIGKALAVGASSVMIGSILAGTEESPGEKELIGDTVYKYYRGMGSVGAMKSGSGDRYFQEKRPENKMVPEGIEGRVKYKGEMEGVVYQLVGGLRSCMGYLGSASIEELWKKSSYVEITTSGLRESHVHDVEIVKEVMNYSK
UniProt A3FQ16, 1-538: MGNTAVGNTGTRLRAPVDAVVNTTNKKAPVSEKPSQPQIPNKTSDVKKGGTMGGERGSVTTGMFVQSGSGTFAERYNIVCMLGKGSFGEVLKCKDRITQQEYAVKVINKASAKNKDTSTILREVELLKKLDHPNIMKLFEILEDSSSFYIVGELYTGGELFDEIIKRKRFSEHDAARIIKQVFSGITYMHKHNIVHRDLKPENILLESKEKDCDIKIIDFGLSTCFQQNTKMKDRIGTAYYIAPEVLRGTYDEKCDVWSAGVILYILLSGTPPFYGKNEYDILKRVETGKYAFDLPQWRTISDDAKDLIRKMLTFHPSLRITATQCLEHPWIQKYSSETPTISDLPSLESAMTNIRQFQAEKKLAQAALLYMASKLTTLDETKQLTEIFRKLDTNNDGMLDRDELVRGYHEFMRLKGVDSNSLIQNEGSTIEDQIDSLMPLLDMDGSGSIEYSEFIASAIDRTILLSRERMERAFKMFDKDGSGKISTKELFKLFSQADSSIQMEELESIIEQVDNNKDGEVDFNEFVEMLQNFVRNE
UniProt Q9LCT3, whole entry: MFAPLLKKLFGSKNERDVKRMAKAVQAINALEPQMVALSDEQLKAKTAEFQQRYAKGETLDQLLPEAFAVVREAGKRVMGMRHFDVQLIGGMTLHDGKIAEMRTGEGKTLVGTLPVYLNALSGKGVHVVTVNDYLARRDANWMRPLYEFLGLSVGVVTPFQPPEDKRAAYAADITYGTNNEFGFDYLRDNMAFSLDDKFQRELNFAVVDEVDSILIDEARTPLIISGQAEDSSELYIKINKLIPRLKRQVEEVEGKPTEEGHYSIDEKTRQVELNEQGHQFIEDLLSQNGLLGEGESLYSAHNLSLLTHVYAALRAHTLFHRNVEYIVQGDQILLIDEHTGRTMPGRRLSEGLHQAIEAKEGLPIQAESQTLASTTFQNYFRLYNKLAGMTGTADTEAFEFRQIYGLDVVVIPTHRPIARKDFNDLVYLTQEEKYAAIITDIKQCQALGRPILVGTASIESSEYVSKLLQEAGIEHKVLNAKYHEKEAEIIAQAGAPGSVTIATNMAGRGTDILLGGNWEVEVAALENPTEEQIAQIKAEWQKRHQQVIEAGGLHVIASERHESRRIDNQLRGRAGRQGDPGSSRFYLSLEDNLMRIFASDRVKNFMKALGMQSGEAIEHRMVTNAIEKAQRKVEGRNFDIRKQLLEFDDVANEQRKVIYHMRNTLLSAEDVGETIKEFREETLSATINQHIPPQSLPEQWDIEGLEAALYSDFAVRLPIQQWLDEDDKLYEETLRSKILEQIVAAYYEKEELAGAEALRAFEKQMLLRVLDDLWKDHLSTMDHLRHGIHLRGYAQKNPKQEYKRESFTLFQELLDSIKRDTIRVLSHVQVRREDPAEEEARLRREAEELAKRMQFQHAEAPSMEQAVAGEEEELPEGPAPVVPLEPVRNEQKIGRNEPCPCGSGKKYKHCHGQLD
UniProt Q14145, 321-609 limits assumed: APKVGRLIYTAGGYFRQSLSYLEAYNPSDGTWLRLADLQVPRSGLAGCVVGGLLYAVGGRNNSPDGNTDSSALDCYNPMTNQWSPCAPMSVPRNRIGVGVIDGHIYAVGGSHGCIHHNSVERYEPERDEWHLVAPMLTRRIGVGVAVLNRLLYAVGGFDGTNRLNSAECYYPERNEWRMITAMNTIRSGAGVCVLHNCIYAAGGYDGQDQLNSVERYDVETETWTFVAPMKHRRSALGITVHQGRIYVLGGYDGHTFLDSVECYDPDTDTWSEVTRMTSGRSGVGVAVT
UniProt P41145, whole entry: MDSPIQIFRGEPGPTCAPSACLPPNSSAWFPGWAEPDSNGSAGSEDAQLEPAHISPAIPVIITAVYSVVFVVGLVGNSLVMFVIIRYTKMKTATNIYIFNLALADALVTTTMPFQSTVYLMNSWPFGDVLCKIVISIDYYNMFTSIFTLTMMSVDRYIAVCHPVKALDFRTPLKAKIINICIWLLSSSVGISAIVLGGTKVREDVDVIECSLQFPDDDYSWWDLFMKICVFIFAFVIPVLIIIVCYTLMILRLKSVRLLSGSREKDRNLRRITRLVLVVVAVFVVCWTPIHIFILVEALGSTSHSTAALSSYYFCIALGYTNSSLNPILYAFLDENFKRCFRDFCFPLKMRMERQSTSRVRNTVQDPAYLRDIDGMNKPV
UniProt Q08J23, whole entry: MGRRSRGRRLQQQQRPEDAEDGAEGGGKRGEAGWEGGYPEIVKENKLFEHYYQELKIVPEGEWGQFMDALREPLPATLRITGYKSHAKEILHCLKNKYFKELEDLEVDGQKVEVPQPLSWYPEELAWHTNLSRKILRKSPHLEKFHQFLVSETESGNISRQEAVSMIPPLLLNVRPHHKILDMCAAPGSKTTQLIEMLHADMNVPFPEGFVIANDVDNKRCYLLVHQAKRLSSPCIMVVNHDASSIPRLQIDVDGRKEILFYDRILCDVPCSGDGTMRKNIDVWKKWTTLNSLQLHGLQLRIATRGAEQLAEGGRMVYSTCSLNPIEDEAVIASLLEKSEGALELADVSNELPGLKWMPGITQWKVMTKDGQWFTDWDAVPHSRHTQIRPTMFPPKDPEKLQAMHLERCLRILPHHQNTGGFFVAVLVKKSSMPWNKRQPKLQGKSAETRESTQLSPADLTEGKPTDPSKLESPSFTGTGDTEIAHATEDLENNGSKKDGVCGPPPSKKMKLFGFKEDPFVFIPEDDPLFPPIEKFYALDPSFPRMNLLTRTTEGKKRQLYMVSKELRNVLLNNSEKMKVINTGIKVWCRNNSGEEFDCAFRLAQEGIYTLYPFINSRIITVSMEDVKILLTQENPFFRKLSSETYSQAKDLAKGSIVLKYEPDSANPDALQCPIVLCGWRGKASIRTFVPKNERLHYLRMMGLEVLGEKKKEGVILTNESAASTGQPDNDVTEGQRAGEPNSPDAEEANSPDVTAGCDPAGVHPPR
UniProt P15307, whole entry: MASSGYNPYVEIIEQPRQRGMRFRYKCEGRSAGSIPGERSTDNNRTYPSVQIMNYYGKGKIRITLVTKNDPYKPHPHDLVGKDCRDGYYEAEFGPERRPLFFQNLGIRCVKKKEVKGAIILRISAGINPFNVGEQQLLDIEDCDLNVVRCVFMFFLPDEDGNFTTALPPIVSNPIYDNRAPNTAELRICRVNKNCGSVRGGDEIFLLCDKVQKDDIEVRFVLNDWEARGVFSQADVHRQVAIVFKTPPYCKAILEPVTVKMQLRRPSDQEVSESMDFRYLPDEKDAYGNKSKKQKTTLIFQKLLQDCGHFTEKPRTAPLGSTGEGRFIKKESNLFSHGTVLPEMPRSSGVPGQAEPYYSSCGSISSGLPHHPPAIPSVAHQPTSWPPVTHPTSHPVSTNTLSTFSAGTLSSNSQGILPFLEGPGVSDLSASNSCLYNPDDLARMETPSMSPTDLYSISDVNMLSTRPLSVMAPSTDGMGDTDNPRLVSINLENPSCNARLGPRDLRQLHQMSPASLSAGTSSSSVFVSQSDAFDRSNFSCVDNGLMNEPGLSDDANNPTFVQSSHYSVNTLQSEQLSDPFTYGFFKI
UniProt Q9UQM7, whole entry: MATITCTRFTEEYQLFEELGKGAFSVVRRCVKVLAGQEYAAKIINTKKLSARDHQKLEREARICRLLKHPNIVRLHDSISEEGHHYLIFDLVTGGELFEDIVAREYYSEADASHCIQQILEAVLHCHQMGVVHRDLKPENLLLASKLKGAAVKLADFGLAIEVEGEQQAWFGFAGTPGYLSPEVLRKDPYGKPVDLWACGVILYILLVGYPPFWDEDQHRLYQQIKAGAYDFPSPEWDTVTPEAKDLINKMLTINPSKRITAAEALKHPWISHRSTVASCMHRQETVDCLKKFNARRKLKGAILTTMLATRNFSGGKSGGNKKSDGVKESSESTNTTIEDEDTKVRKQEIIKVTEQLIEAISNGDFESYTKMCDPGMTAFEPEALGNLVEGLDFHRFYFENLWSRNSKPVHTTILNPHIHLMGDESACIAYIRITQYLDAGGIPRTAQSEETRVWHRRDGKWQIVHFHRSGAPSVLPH
UniProt P00760, 24-246 limits assumed: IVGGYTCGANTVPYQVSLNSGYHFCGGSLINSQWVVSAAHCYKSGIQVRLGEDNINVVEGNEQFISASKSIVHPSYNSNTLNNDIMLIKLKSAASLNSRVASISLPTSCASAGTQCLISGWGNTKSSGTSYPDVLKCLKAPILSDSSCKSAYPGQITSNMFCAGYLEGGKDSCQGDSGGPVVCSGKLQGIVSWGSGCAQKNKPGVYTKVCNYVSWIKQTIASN
UniProt Q9Y5N1, whole entry: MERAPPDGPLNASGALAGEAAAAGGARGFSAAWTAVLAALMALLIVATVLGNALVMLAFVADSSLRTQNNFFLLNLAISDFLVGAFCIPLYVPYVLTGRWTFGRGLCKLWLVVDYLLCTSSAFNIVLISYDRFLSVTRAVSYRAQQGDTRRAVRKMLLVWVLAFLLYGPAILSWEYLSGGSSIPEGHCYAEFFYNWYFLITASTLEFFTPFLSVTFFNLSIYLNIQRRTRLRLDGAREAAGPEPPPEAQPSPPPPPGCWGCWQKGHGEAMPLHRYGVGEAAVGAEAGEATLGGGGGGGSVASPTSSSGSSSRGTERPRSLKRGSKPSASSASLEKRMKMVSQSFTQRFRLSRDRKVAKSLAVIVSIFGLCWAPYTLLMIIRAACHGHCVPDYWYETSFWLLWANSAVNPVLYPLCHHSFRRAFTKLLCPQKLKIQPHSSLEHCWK
UniProt Q02768, whole entry: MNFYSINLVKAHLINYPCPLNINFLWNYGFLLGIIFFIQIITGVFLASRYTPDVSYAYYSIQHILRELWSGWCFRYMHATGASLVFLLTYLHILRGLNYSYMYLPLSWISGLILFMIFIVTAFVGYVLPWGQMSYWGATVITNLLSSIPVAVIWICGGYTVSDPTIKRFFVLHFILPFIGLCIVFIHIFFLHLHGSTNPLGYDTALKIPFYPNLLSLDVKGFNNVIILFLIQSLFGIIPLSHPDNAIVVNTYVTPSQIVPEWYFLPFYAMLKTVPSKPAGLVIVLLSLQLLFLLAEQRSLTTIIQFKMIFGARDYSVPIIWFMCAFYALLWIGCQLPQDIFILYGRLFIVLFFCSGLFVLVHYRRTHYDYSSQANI

Under helicase inhibition, `Cc1cc(C(O)(c2ccc(Nc3ccccc3)cc2)c2ccc(Nc3ccc(S(=O)(=O)O)cc3)cc2)ccc1N` (stereo not shown) is recorded as “no inhibition” (Genome polyprotein, NS3 helicase domain (Hepatitis C virus genotype 1b, UniProt Q9WMX2); helicase activity, molecular beacon helicase; 12 µM).
`O=C(Cn1c(-c2ccccn2)nc2ccccc21)Nc1ccc2ccccc2c1` gave an IC50 of 1.6 nM (Inosine-5'-monophosphate dehydrogenase (Cryptosporidium parvum, UniProt Q8T6T2); enzyme activity, inhibitor; corrected for open enzyme conformation).
`CCOc1ccc2cc(-c3nn(C(C)(C)CCO)c(N)c3C(N)=O)ccc2c1` gave an IC50 of 2.5 nM (Calmodulin-domain protein kinase 1, putative (Cryptosporidium parvum, UniProt A3FQ16); kinase activity, inhibitor).
With `CSc1nc(Cl)cc(Sc2nnc(-c3cc(C(F)(F)F)cc(C(F)(F)F)c3)[nH]2)n1` the IC50 was 3000 nM (Protein translocase subunit SecA (secA, Pseudomonas aeruginosa, UniProt Q9LCT3); inhibitor; proteoliposomes).
The Kd of `C[C@@H](O)[C@@H]1NC(=O)[C@H](CCC(=O)O)NC(=O)[C@H](CO)NC(=O)[C@H](CC(=O)O)NC(=O)[C@@H](N)Cc2ccc(cc2)OCCSC[C@@H](C(=O)O)NC(=O)[C@H](CCC(=O)O)NC(=O)CNC1=O` is reported as 120 ± 10 nM (Kelch-like ECH-associated protein 1, Kelch domain (KEAP1, Homo sapiens, UniProt Q14145); plate binding; tag-free macrocycle).
`CO[C@]12CC[C@@]3(C[C@@H]1[C@@H](O)c1ccccc1)[C@H]1Cc4ccc(O)c5c4[C@@]3(CCN1CC1CC1)[C@H]2O5` gave a Ki of 0.88 ± 0.03 nM (OPRK1 (Homo sapiens, UniProt P41145); binding, radioligand displacement; CHO; added: [3H]U-69593).
For `CCCCCCCCCCCCCC(=S)NCCCC[C@H](NC(=O)OCc1ccccc1)C(=O)Nc1cccc(O)c1`, the IC50 was > 100000 nM (SIRT6; defatty-acylase activity, inhibitor; 15 min preincubation, added: H3K9-Myr peptide substrate).
For `CCCCCCCCCCCCCC(=S)NCCCC[C@H](NC(=O)OCc1ccccc1)C(=O)O`, the IC50 was ~50000 nM (SIRT6; demyristoylase activity, inhibitor).
The IC50 of `C=CC(=O)N1C[C@H](c2ccc(Br)cc2)[C@@H]1C(=O)Nc1cccc2cccnc12` is reported as 2400 ± 900 nM (NSUN2 (Homo sapiens, UniProt Q08J23); tRNA methylation, inhibitor, LC-MS/MS m5C; cell lysate; 1 h, added: tRNA Gly-CCC).
Under “total amount permeated”, `C[C@H](Cc1ccc(O)c(O)c1)[C@@H](C)Cc1ccc(O)c(O)c1` is recorded as 20.4 ± 1.84 µg (human skin; 3% solution, 8 h, skin UV-treated 30 min).
For `COc1cc(OC)c2ccccc2c1C=C1C(=O)NC(=S)NC1=O`, the IC50 was 2900 nM (Proto-oncogene c-Rel (Rel, Mus musculus, UniProt P15307); inhibitor, flow cytometry; activated T cells, mouse; GDM-12 vehicle, added: anti-CD3/CD28).
`CC#C/C(=N\OC[C@H]1COCCN1)c1ccc2ncnc(Nc3ccc(OCc4cccc(F)c4)c(Cl)c3)c2c1` gave an inhibition of 43.7% (CAMK2A (Homo sapiens, UniProt Q9UQM7); kinase activity; 10 µM).
For `Cc1cc(O)c2c(c1)C(=O)c1cc(O)cc(O)c1C2=O`, the Ki was 5000 ± 400 nM (Serine protease 1 (PRSS1, Bos taurus, UniProt P00760); enzyme activity, inhibitor, fluorescence; binding enzyme-substrate complex, added: Boc-GRR-AMC).
For `CCCN1CCN(c2ccc3c(c2)C2CC3CCN2C(=O)OCc2ccccc2)CC1` (stereo not shown), the Ki was 644 nM (HRH3 (Homo sapiens, UniProt Q9Y5N1); binding, radioligand binding).
Under “log2 fold change”, `CCN1CCN(Cc2ccc(NC(=O)c3ccc(C)c(/C=C/c4cnc5[nH]ccc5c4OC)c3)cc2C(F)(F)F)CC1` is recorded as -0.143 (TPR-MET fusion; kinase-CDC37 interaction, cell-based kinome screen; 5 µM; reference: vehicle).
The EC50 of `CCOC(=O)OCOc1c(-c2ccc(Oc3ccc(OC(F)(F)F)cc3)cc2)c(C)nc2cc(OC)c(Cl)cc12` is reported as 5300 nM (MT-CYB, bc1 complex (Plasmodium falciparum, UniProt Q02768); enzyme activity; Plasmodium falciparum mitochondria).

A few entries again:
For `CCCCCCCCCCCCCC(=S)NCCCC[C@H](NC(=O)OCc1ccccc1)C(=O)O`, the IC50 was ~50000 nM (SIRT6; demyristoylase activity, inhibitor).
For `COc1cc(OC)c2ccccc2c1C=C1C(=O)NC(=S)NC1=O`, the IC50 was 2900 nM (Proto-oncogene c-Rel (Rel, Mus musculus, UniProt P15307); inhibitor, flow cytometry; activated T cells, mouse; GDM-12 vehicle, added: anti-CD3/CD28).
